Results from different studies.
Protocols differ between the studies behind these lines. Numbers after ± are the reported error.

The logP of `C[C@@H](NC(=O)c1ccccc1CCC(=O)NNC(=O)/C=C/C(=O)OCC1CCCC1)c1cccc2ccccc12` is reported as 4.8.
The logP of `CCCCCCCC/C=C\CCCCCCCC(=O)O.Cc1cc(/C=C/C#N)cc(C)c1Nc1ccnc(Nc2ccc(C#N)cc2)n1` is reported as 0.89 ± 0.07 (octanol/water; room temperature).
`O=C(O)CNC(=O)c1nc(Cl)c2ccccc2c1O` gave a logP of 4.1 (shake-flask, potentiometric; 1-octanol/water).
`COC(=O)/C=C\C(=O)NNC(=O)CCc1ccccc1C(=O)N[C@H](C)c1cccc2ccccc12` gave a logP of 3.
`O=C(CC1OCCN(Cc2ccccc2)C1=O)Nc1ccc2c(c1)OCCO2` (stereo not drawn) has a logP of 3.67 (octanol/buffer; pH 11, known kinase inactives set).
`COC(=O)/C=C/C(=O)NNC(=O)CCc1ccccc1C(=O)N[C@H](C)c1cccc(-c2cn[nH]c2)c1` has a logP of 1.6.
`C=Cc1c(C)c2cc3nc(c4c5[nH]c(cc6nc(cc1[nH]2)C(C)=C6CC)c(C)c5C(=O)C4)[C@@H](CCC(=O)O)[C@@H]3C` gave a logP of 0.302 (shake flask; octanol/water 2:1).
The logP of `O=C(O)CNC(=O)c1ncc(-c2cccc(Cl)c2)cc1O` is reported as 3.3 (shake-flask, potentiometric; 1-octanol/water).
The logP of `O=C1Nc2ccc3ncsc3c2/C1=C/Nc1ccc2c(c1)CS(=O)(=O)C2` is reported as 2.52 (octanol/buffer, 40 mM buffer; pH 11).
The logP of `CCOC(=O)CNC(=O)c1ncccc1O` is reported as 0.3 (shake-flask, potentiometric; 1-octanol/water).
The logP of `Cc1nc(N)sc1-c1ccnc(Nc2ccc(N(C)C)cc2)n1` is reported as 3.25 (octanol/buffer; pH 11).
`CN1C(C(=O)Nc2cccc(F)n2)=C(O)c2ccccc2S1(=O)=O` gave a logP of 3.1 (shake-flask, potentiometric; 1-octanol/water).
With `C=Cc1c(C)c2cc3nc(c4c5[nH]c(cc6nc(cc1[nH]2)C(C)=C6CC)c(C)c5C(=O)C4)[C@@H](CCC(=O)OC)[C@@H]3C` the logP was 0.863 (shake flask; octanol/water 1:2).
The logP of `O=C(O)CNC(=O)c1ncc(-c2cccc(F)c2)cc1O` is reported as 2.8 (shake-flask, potentiometric; 1-octanol/water).
With `Cc1c(NS(=O)(=O)c2cccc3nonc23)c(=O)n(-c2ccccc2)n1C` the logP was -0.81 (octanol/buffer; pH 11).

For quick reference, copied from above:
The logP of `O=C(O)CNC(=O)c1ncc(-c2cccc(F)c2)cc1O` is reported as 2.8 (shake-flask, potentiometric; 1-octanol/water).
